Measurements from different studies.
Protocols differ between the studies behind these lines. “And” joins repeats or separate records; there may be more than shown. Numbers after ± are the reported error. In brackets after ≈: the same amount, converted by molar mass.

CCN(CC)c1ccc2c(c1)O[B-]1(c3ccc(C)cc3)OC(=O)C(c3ccccc3)=N[N+]1=C2 (stereo not drawn)  fluorescence lifetime (toluene): 2.4 ns
O=c1c2ccccc2[se]n1CCCCCCn1[se]c2ccccc2c1=O  solubility (shake-flask, RP-HPLC; 10% PEG2000 solution; 24 h, 25 °C): 7 ± 2 µg/mL (≈ 14.6 µM)
C=CC(=O)Nc1cc(Nc2nccc(-c3c[nH]c4ccccc34)n2)c(OC)cc1N(C)CCN(C)C  recovery (storage stability; human dried blood spots; 72 h, on ice, LLOQ level): 70.3%
CN1CCC[C@]1(C)/C=C/S(=O)(=O)NC(=O)Nc1c2c(cc3c1CCC3)CCC2  subjects with adverse event (measured: laboratory investigations; human; oral, 12.5 mg twice daily, 14 days, multiple ascending dose): 16.7%
O=C(NCCOc1ccc(F)cc1)c1ccc(C2CCCCC2)cc1  hepatic clearance (liver microsome stability; cynomolgus liver microsomes; 1 µM): 40 mL/min/kg
CN1CC[C@@H](COc2cnc(C#N)cc2-c2ccn3nc(NC(=O)C4CC4)cc3c2)C1  volume of distribution (rat, Sprague-Dawley, male, plasma; intravenous, 1 mg/kg): 10 L/kg
COc1cccc(OC)c1-c1cc(C(=O)NC2(C(=O)O)C3CC4CC(C3)CC2C4)nn1-c1ccc(C(=O)N(C)CCOCCOCCN(C)C(=O)[C@H](CCCCNC(=O)[C@H](CC(C)C)NC(=O)C2OC2C(=O)O)NC(=O)CN2CCN(CC(=O)[O-])CCN(CC(=O)[O-])CCN(CC(=O)[O-])CC2)cc1C(C)C.[177Lu+3] (mixture of isomers)  tumour-to-blood ratio (mouse, HT-29 xenograft; 24 h post injection, biodistribution; reference: tumour over blood uptake): 4.8
COc1cc2c(cc1OC)[C@H]1C[C@@H](O)[C@H](CC(C)C)CN1CC2  Tlag (measured: non-deuterated analyte; healthy human male, plasma; oral, 25 mg, median, [14C]-tetrabenazine dosed): 0.33 h
C=C1C[C@]2(C(=O)OC)C=C(C(=O)Nc3cccc(C(=O)Nc4ccc(Nc5nccc(-c6cccnc6)n5)c(C)c4)c3)C(=O)[C@H]1C2  compound remaining (Wistar rat male, blood plasma; 10 µM, 60 min): 0.99%
CCNC(=S)NN=Cc1c2ccccc2cc2ccccc12.Cc1ccc(C(C)C)cc1.[Cl-].[Cl-].[Ru+2]  aquation rate constant (UV-Vis spectroscopy; Tris buffer; pH 7.20, 298 K, 50 mM NaCl): 0.00118 ± 0.00024 s⁻¹
O=C(Nc1cnccc1-c1ccc([18F])nc1)c1ccnc(NC(=O)C2CC2)c1  SUV (FVB/NJ mouse, both sexes, liver; intravenous, 30 min, added: tariquidar 15 mg/kg iv): 8.82
COC(=O)[C@@]1(C)C=C(C(=O)Nc2cccc(C(=O)Nc3ccc(Nc4nccc(-c5cccnc5)n4)c(C)c3)c2)C(=O)CC1  compound remaining (metabolic stability; Wistar rat, male, primary hepatocytes; 1 µM, 10 min): 75.6%
O=C(CN1CN(c2cccc(F)c2)C2(CCN(C(=O)c3cnc4[nH]ncc4c3)CC2)C1=O)NCC(F)(F)F  CLint (mouse liver microsomes): 110 µL/min/mg protein
C/C(N)=N/C(=N\S(=O)(=O)c1ccc(C(F)(F)F)cc1)N1C[C@H](c2ccccc2)C(c2ccc(Cl)cc2)=N1  half-life (male Sprague-Dawley rat, plasma; intravenous, 2 mg/kg): 3.9 h
C=C(NC(=O)c1csc(-c2nc3c(cc2O)-c2nc(cs2)C(=O)NC(C(C)O)C(=O)NC(=C(C)OC)c2nc(cs2)C(=O)NC2c4nc(cs4)C(=O)NC(COC(=O)c4c5c6c(cccc6n4O)COC(=O)C(OC4CC(C)(O)C(N(C)C)C(C)O4)C2OC5)c2nc-3cs2)n1)C(N)=O (stereo not drawn)  MRT(0-last) (Sprague-Dawley rat, male, plasma; intravenous infusion, 6 mg/kg, multiple doses, day 7): 2.1 h
Cc1nc(N)nc2c1C(=O)N[C@@H](c1ccc(F)cc1-c1cccc(O[11CH3])n1)C2  SUV (ex vivo biodistribution; healthy mice, muscle; 60 min post-injection, baseline, vehicle pre-treatment): 0.6 ± 0.1
CCCC[C@H](NC(=O)CNC(=O)CNC(=O)[C@H](CCCCNC(=O)[C@H](CC(=O)O)NC(=O)C(C)c1ccc(CC(C)C)cc1)NC(=O)CN1CCN(CC(=O)O)CCN(CC(=O)O)CCN(CC(=O)O)CC1)C(=O)N[C@H]1CC(=O)NCCCC[C@@H](C(N)=O)NC(=O)[C@H](Cc2c[nH]c3ccccc23)NC(=O)[C@H](CCCNC(=N)N)NC(=O)[C@@H](Cc2ccccc2)NC(=O)[C@H](Cc2c[nH]cn2)NC1=O (stereo partly drawn) [lutetium-177 labelled]  tumour-to-tissue ratio (C57 mice, tumour; intravenous, 0.037 MBq, 24 h; reference: muscle): 43.2
COc1cccc(OC)c1-c1cc(C(=O)NC2(C(=O)O)C3CC4CC(C3)CC2C4)nn1-c1ccc(C(=O)N(C)CCCN(C)CCCN(C)C(=O)[C@H](CCCCNC(=O)[C@H](CC(C)C)NC(=O)C2OC2C(=O)O)NC(=O)CN2CCN(CC(=O)[O-])CCN(CC(=O)[O-])CCN(CC(=O)[O-])CC2)cc1C(C)C.[177Lu+3] (mixture of isomers)  tumour-to-blood ratio (mouse, HT-29 xenograft; 4 h post injection, biodistribution; reference: tumour over blood uptake): 7.99
C=CC(=O)Nc1cc(Nc2nccc(-c3cn(C)c4ccccc34)n2)c(OC)cc1N(C)CCNC  remaining compound (human, plasma; 270 ng/mL, 2 h, -80 °C, high QC level): 100%
O=C(N1CCCCC1)C12CC(c3ccccc3)(C1)C2(Cl)Cl  compound remaining (metabolic stability; human, liver microsomes; 2 µM, 25 min, pH 7.4): 58%
O=C(NS(=O)(=O)c1cccs1)c1cc2ccccc2n1Cc1ccc(Br)c2ccccc12  body weight (KM mouse, chronic hyperuricaemia model; dose not given, day 1): 27.1 g and 25.4 g and 26.9 g and 24.5 g and 25.1 g
Cc1cc(F)ccc1-c1cc(N2C[C@H]3COC(O)CN3C[C@H]2CO)ncc1N(C)C(=O)C(C)(C)c1cc(C(F)(F)F)cc(C(F)(F)F)c1 (stereo partly drawn)  amount excreted in faeces (healthy male human; oral, 120 mg, up to 480 h cumulative; reference: dose): 1.39%
CC(C)(O)Cn1nc(-c2ccccc2)c2c(Cl)c(-c3ccccc3)nnc21  AUC (mouse juvenile P6, plasma; intraperitoneal, 10 mg/kg): 5.87 µM·h
COc1cccc(OC)c1-c1cc(C(=O)NC2(C(=O)O)C3CC4CC(C3)CC2C4)nn1-c1ccc(C(=O)N(C)CCOCCN(C)C(=O)[C@H](CCCCNC(=O)[C@H](CC(C)C)NC(=O)C2OC2C(=O)O)NC(=O)CN2CCN(CC(=O)[O-])CCN(CC(=O)[O-])CCN(CC(=O)[O-])CC2)cc1C(C)C.[177Lu+3] (mixture of isomers)  tumour-to-bone ratio (mouse, HT-29 xenograft; 72 h post injection, biodistribution; reference: tumour over bone uptake): 2.46
COc1cccc(C2CC(c3ccccc3Cl)Nc3nc(N)nn32)c1 (stereo not drawn)  permeability coefficient (PAMPA; artificial membrane; 10 µM, 4 h): > 1 ×10⁻⁶ cm/s
COc1cccc(OC)c1-c1cc(C(=O)NC2(C(=O)O)C3CC4CC(C3)CC2C4)nn1-c1ccc(C(=O)N(C)CCCN(C)C(=O)[C@H](CCCCNC(=O)[C@H](CC(C)C)NC(=O)C2OC2C(=O)O)NC(=O)CN2CCN(CC(=O)[O-])CCN(CC(=O)[O-])CCN(CC(=O)[O-])CC2)cc1C(C)C.[177Lu+3] (mixture of isomers)  tissue uptake (mouse, HT-29 xenograft, lung; 4 h post injection): 1.19 %ID/g
COc1ccc2c(c1)CN(C(=O)CCN1CCC(Cc3ccccc3)CC1)CCS2  unbound plasma concentration (paroxysmal atrial fibrillation patients, plasma; oral, 540 mg, 60 min): 15 ± 3 nM
c1cc(C2CCCCC2)ccc1-c1ccc(N2CCCC2)nc1  hepatic clearance (liver microsome stability; mouse liver microsomes; 1 µM): 51 mL/min/kg
OC1(C(F)(F)F)CCN(c2nc(Nc3ccnc(C(F)(F)F)c3)nc(-c3cccc(C(F)(F)F)n3)n2)C1 (stereo not drawn)  AUC(0-24 h) (Sprague-Dawley rat, both sexes, plasma; oral gavage, 5 mg/kg, day 1): 6100 ± 654 ng·h/mL
CC(C)C[C@H](NC(=O)[C@H](CO)NC(=O)[C@H](CCC(=O)O)NC(=O)CNC(=O)[C@H](C)NC(=O)OCc1ccccc1)C(=O)N[C@@H](Cc1ccc(O)cc1)C(=O)N[C@@H](CCC(=O)O)C(N)=O  compound remaining (metabolic stability; human, plasma; 15 min): 83.2%
[123I]c1ccc2nc(-c3ccc(-n4ccnn4)nc3)cn2c1  tracer uptake (male Wistar rat, pancreas; intravenous, 4 MBq, 14 h): 0.005 %ID/g
CC(C)(O)c1ncc([S@](N)(=O)=NC(=O)Nc2c3c(cc4c2CCC4)CCC3)s1  subjects with adverse events (measured: Vascular disorders; healthy human volunteers; oral, 200 mg once daily, 14 days, spray-dried dispersion): 14%
F[C@@H]1[C@H](c2ccc(-c3cncnc3)cc2)[C@H](F)[C@H](F)C[C@@H]1F  hepatic clearance (liver microsome stability; mouse liver microsomes; 1 µM): 29 mL/min/kg
O=C(Nc1cnccc1-c1ccc([18F])cc1)c1ccnc(NC(=O)C2CC2)c1  SUV (FVB/NJ mice (both sexes), small intestine; intravenous, dose not given, 120 min): 5.34
C=Cc1cccc([B-]23OC(=O)C(c4ccccc4)=N[N+]2=Cc2ccc(N(CC)CC)cc2O3)c1 (stereo not drawn)  fluorescence lifetime (toluene): 2.54 ns
Cc1noc(C)c1Cn1cc(N2C(=O)CN(Cc3cccc(OS(=O)(=O)O)c3)C2=O)cn1  plasma concentration (rat Sprague-Dawley male, plasma; intravenous, 1 mg/kg of parent drug, 0.25 h): 2660 ng/mL
COc1cnc2cccc(N3CCc4c(cc(Cn5ccnc5)cc4-c4cn(C)nc4C(F)(F)F)C3=O)c2c1  AUC extrapolated (CD-1 mouse, male, plasma; oral, 10 mg/kg): 0.8%
O=C(Nc1ccc([C@H]2[C@@H](F)[C@@H](F)C[C@@H](F)[C@H]2F)cc1)C1CC1  hepatic clearance (liver microsome stability; rat liver microsomes; 1 µM): 15 mL/min/kg
COc1ccccc1NC(=O)OC1C(C)C(OC)C=COC2(C)Oc3c(C)c(O)c4c(c3C2=O)C2=NC3(CCN(CC(C)C)CC3)NC2=C(NC(=O)C(C)=CC=CC(C)C(O)C(C)C(O)C1C)C4=O (stereo not drawn)  AUC (CD-1 mouse, plasma; oral, dose not given, efficacy dose): 41800 ng·h/mL
